# Results from different studies.
# Protocols differ between the studies behind these lines. ± gives the spread as reported.
# Method: steady-state kinetics
# B1: protein (Actinidia deliciosa, UniProt Q32W37); chain QLPCAQALPIPTVTTTTSIEPPHVTRRSANYHPSIWGDHFLAYSSDAMEEEVINMEQQQRLHHLKQKVRKMLEAAAEQSSQMLNLVDKIQRLGVSYHFETEIETALRHIYKTCDYHFDDLHTAALSFRLLRQQGYPVSCDMFDKFKNSKGEFQESIISDVQGMLSLYEATCLRIHGEDILDEALAFTITQLRSALPNLSTPFKEQIIHALNQPIHKGLTRLNARSHILFFEQNDCHSKDLLNFAKLDFNLLQKLHQRELCEITRWWKDLNFAKTLPFARDRMVECYFWILGVYFEPQYLLARRMLTKVIAMISIIDDIYDVYGTLEELVLFTDAIERWEISALDQLPEYMKLCYQALLDVYSMIDEEMAKQGRSYCVDYAKSSMKILVRAYFEEAKWFHQGYVPTMEEYMQVALVTAGYKMLATSSFVGMGDLATKEAFDWVSNDPLIVQAASVIGRLKDDIVGHKFEQKRGHVASAVECYSKQHGTTEEEAIIELDKQVTHSWKDINAECLCPIKVPMPLLARVLNLARVLYVIYQDEDGYTHPGTKVENFVTSVLIDSMPIN
# B2: LYS12 D271N (Saccharomyces cerevisiae, UniProt P40495); chain SLTIGLIPGDGIGKEVIPAGKQVLENLNSKHGLSFNFIDLYAGFQTFQETGKALPDETVKVLKEQCQGALFGAVQSPTTKVEGYSSPIVALRREMGLFANVRPVKSVEGEKGKPIDMVIVRENTEDLYIKIEKTYIDKATGTRVADATKRISEIATRRIATIALDIALKRLQTRGQATLTVTHKSNVLSQSDGLFREICKEVYESNKDKYGQIKYNEQIVDSMVYRLFREPQCFDVIVAPNLYGDILSNGAAALVGSLGVVPSANVGPEIVIGEPCHGSAPDIAGKGIANPIATIRSTALMLEFLGHNEAAQDIYKAVDANLREGSIKTPDLGGKASTQQVVDDVLSRL
# B3: enzyme (Halalkalibacterium halodurans, UniProt Q9KCN8); chain MLNVTQLQEATTFIQQQIETKPTIGLILGSGLGILADEIEQPVKVPYSDIPHFPVSTVQGHAGQLVIGMLEGKQVIAMQGRFHFYEGYSLEVVTFPVRVMKALGVEQIIVTNAAGGVNESFEAGDLMIIRDHINNMAQNPLIGPNDEAFGVRFPDMSNAYSERLRTLAKEKGNTLNLKLQEGVYVANTGPVYETPAEVRMIRKLGGDAVGMSTVPEVIVARHAGLEVLGISCISNMAAGILPQPLSHDEVIETTERVRQDFLNLVKAIVKDM
# B4: PRP43 F357A (Saccharomyces cerevisiae, UniProt P53131); chain MGSKRRFSSEHPDPVETSIPEQAAEIAEELSKQHPLPSEEPLVHHDAGEFKGLQRHHTSAEEAQKLEDGKINPFTGREFTPKYVDILKIRRELPVHAQRDEFLKLYQNNQIMVFVGETGSGKTTQIPQFVLFDEMPHLENTQVACTQPRRVAAMSVAQRVAEEMDVKLGEEVGYSIRFENKTSNKTILKYMTDGMLLREAMEDHDLSRYSCIILDEAHERTLATDILMGLLKQVVKRRPDLKIIIMSATLDAEKFQRYFNDAPLLAVPGRTYPVELYYTPEFQRDYLDSAIRTVLQIHATEEAGDILLFLTGEDEIEDAVRKISLEGDQLVREEGCGPLSVYPLYGSLPPHQQQRIAEPAPESHNGRPGRKVVISTNIAETSLTIDGIVYVVDPGFSKQKVYNPRIRVESLLVSPISKASAQQRAGRAGRTRPGKCFRLYTEEAFQKELIEQSYPEILRSNLSSTVLELKKLGIDDLVHFDFMDPPAPETMMRALEELNYLACLDDEGNLTPLGRLASQFPLDPMLAVMLIGSFEFQCSQEILTIVAMLSVPNVFIRPTKDKKRADDAKNIFAHPDGDHITLLNVYHAFKSDEAYEYGIHKWCRDHYLNYRSLSAADNIRSQLERLMNRYNLELNTTDYESPKYFDNIRKALASGFFMQVAKKRSGAKGYITVKDNQDVLIHPSTVLGHDAEWVIYNEFVLTSKNYIRTVTSVRPEWLIEIAPAYYDLSNFQKGDVKLSLERIKEKVDRLNELKQGKNKKKSKHSKK
# B5: ASRGL1 (Homo sapiens, UniProt Q7L266); chain 1 MNPIVVVHGGGAGPISKDRKERVHQGMVRAATVGYGILREGGSAVDAVEGAVVALEDDPEFNAGCGSVLNTNGEVEMDASIMDGKDLSAGAVSAVQCIANPIKLARLVMEKTPHCFLTDQGAAQFAAAMGVPEIPGEKLVTERNKKRLEKEKHEKGAQKTDCQKNLG; chain 2 TVGAVALDCKGNVAYATSTGGIVNKMVGRVGDSPCLGAGGYADNDIGAVSTTGHGESILKVNLARLTLFHIEQGKTVEEAADLSLGYMKSRVKGLGGLIVVSKTGDWVAKWTSTSMPWAAAKDGKLHFGIDPDDTTITDLP
# B6: TcA (Trypanosoma cruzi, UniProt Q4DRC4); chain MFIRLFAREEEGEKEGKICHMPREYEFAEKILFTEEEIRTRIKEVAKRIADDYKGKGLRPYVNPLVLISVLKGSFMFTADLCRALCDFNVPVRMEFICVSSYGEGLTSSGQVRMLLDTRHSIEGHHVLIVEDIVDTALTLNYLYHMYFTRRPASLKTVVLLDKREGRRVPFSADYVVANIPNAFVIGYGLDYDDTYRELRDIVVLRPEVYAEREAARQKKQRAIGSADTDRDAKREFHSKY
# B7: CstB (Staphylococcus aureus, UniProt G5ELA4); chain MFFKQFYDNHLSQASYLVGCQRTGEAIIIDPVRDLSKYIEVADSEGLTITQATETHIHADFASGIRDVAKRLNANIYVSGEGEDALGYKNMPSKTQFVKHGDIIQVGNVKLEVLHTPGHTPESISFLLTDLGGGSSVPMGLFSGDFIFVGDIGRPDLLEKSVQIKGSTEISAKQMYESVQNIKNLPDYVQIWPGHGAGSPCGKALGAIPISTIGYEKINNWAFNEIDETKFIESLTSNQPAPPHHFAQMKQVNQFGMNLYQSYDVYPSLDNKRVAFDLRSKEAFHGGHTKGTINIPYNKNFINQIGWYLDFEKDIDLIGDKSTVEKAKHTLQLIGFDKVAGYRLPKSGISTQSVHSADMTGKEEHVLDVRNDEEWNNGHLDQAVNIPHGKLLNENIPFNKEDKIYVHCQSGVRSSIAVGILESKGFENVVNIREGYQDFPESLK
# B8: putA (Rhodobacter capsulatus, UniProt D5AN87); chain MTDLSALGPKAKFAPEAEVLQALVAQAALPQPQLDRIAARGADLVARIRAEAKPSLMEHFLAQYGLSTREGVALMCLAEAMLRVPDTATIDALIEDKIAPSDWGKHLGTAASSLVNASTWALMLTGKVLDDGAGGIAGTLRGAMRRLGEPVIRAAVGQAMREMGRQFVLGETIEKALERAEKREAEGYTFSYDMLGEAALTAADAERYRLAYAQAITAIGKAATRGSIAANPGISIKLSALHPRYEVAQEARVMAELVPVVRDLARAAARAGIALHIDAEEQDRLALSLRVMAAVIADPETAGWEGFGAVVQAYGKRAGAAIDALAAMARAAGRRINIRLVKGAYWDAEMKRAQVEGHPGFPLFTSKTGTDVAYICLAAKLFGLNDCIYPQFATHNAHTVAAVLEMAAGRPFEFQRLHGMGARLHDIVLRETGGRCRIYAPVGAHRDLLAYLVRRLLENGANSSFVNQIVNESVPPAEVAACPFAALPTARAPRGLLAPADLFGAGRVNAQGFDLSDPEVLARIEAARDVTLPDAAPIVAGPVSGTLRPVRNPATGAVVAQVTEADAATVALALDAAQVWSAPAATRAAVLCRAADLYEENFGPIFAALAQEAGKTLGDAVSELREAVDFLRYYAAEGAADTRPPRGAVVAISPWNFPLAIFTGQVAAALMAGNAVLAKPAEQTPIIAALAVRLLHQAGVPETALQLLPGDGPTVGAALTRDPRVAGVVFTGSTETAQIIARAMAAHLAPGTPLIAETGGLNAMVVDSTALPEQAVRDVVASAFRSAGQRCSALRCLYVQDDIAPHLIGMLKGAMEELVSGDPARLSTDVGPVIDAEAKAGIETYLAANKARILHRSTAPEGGHFVAPALLQVGGIADLEREIFGPVLHLATFAAEDLPAVIAAINARGYGLTFGLHSRIDARVETVAETIRAGNIYVNRNQIGAVVGSQPFGGEGLSGTGPKAGGPLYLNRFYAPEPVVAVGGWTEAATPILPEARETQLDEIFLPGPTGELNRLTRHQRGPILCLGPGAEAASAQAAAVVALGGQAVQASGAVSPKALETLTPLAGVLWWGAAEMGRAYAQALAVRPGPLVPLITAKPDLAHVAHERHLCVDTT
# B9: enzyme (Mortierella alpina, UniProt U5Y6A8); chain MAPPHVVDEQVRRRIVVEDEIQSKKQFERNYVPMDFTIKEIRDAIPAHLFIRDTTKSILHVVKDLVTIAIVFYCATFIETLPSLALRVPAWITYWIIQGTVMVGPWILAHECGHGAFSDSKTINTIFGWVLHSALLVPYQAWAMSHSKHHKGTGSMSKDVVFIPATRSYKGLPPLEKPAAEEEVLEQEHHHHEESIFAETPIYTLGALFFVLTLGWPLYLIMNFSGHEAPHWVNHFQTVAPLYEPHQRKNIFYSNCGIVAMGSILTYLSMVFSPLTVFMYYGIPYLGVNAWIVCITYLQHTDPKVPHFRDNEWNFQRGAACTIDRSFGTIVNHLHHHIGDSHQCHHMFSQMPFYNAVEATKHLKAKLGKYYIFDDTPIAKALYRNWRECKFVEDEGDVVFYKH
# B10: sacB S173A/S422A (Priestia megaterium, UniProt D5DC07); chain KGNDSKDFNNSYGISHITRDNMVKIPQQQNSDQFKVPAFDESTIKNIASAKGKNASGNTIDLDVWDSWPLQNADGTVATYHGYQIVFALAGDPKDSNDTSVYLFYKKAGDKSIDSWKNAGRVFKDSDKFVPNDPHLKNQTQEWAGSGTLTKDGKVRLFYTDYSGKQYGKQTLTTAQVNMSQPNDNTLKVDGVEDYKSIFDGDGKIYQTVQQFIDEGGYDTGDNHTLRDPHYIEDNGHKYLVFEANTGTEDGYQGEDSLYNRAYYGGNNPFFQSEKKKLLEGSNKEKASLANGALGIIELNDDYTLKKVMKPLITSNTVTDEIERANIFKKDGKWYLFTDSRGSKMTIDGIGQDDVYMLGYVSNTLTGKYKPLNDTGLVLHMDLDPNDKTFTYAHFAVPQTKGDNVVITSYMTNRGFYEDNHSTFAPSFLVNIDGSKTSVVKDRVLEQGQLTVDED
# B11: TylM1 (Streptomyces fradiae, UniProt P95748); chain MAHSSATAGPQADYSGEIAELYDLVHQGKGKDYHREAADLAALVRRHSPKAASLLDVACGTGMHLRHLADSFGTVEGLELSADMLAIARRRNPDAVLHHGDMRDFSLGRRFSAVTCMFSSIGHLAGQAELDAALERFAAHVLPDGVVVVEPWWFPENFTPGYVAAGTVEAGGTTVTRVSHSSREGEATRIEVHYLVAGPDRGITHHEESHRITLFTREQYERAFTAAGLSVEFMPGGPSGRGLFTGLPGAKGETR
Substance,substrate,pH,temperature,notes,added,kcat/Km
B1 (protein),CC(C)=CCC/C(C)=C/CC/C(C)=C/CO[P@@](=O)(O)OP(=O)(O)O,pH 7.5,,,FPP 1-100 µM,6700 ± 500 M⁻¹ s⁻¹
"enzyme (Limosilactobacillus reuteri, UniProt Q5SBN3)",OC[C@H]1O[C@@](CO)(O[C@H]2O[C@H](CO)[C@@H](O)[C@H](O)[C@H]2O)[C@@H](O)[C@@H]1O,pH 4.7,37 °C,,,100000 M⁻¹ s⁻¹
B2 (LYS12 D271N),NC(=O)c1ccc[n+]([C@@H]2O[C@H](COP(=O)([O-])OP(=O)(O)OC[C@H]3O[C@@H](n4cnc5c(N)ncnc54)[C@H](O)[C@@H]3O)[C@@H](O)[C@H]2O)c1,pH 7.5,25 °C,potassium acetate 100 mM,Mg-cosubstrate varied; Mg2+ 10 mM,1080 ± 30 M⁻¹ s⁻¹
B3 (enzyme),OC[C@H]1O[C@@H](n2cnc3c(O)ncnc32)[C@H](O)[C@@H]1O,,,,,1.2e+08 M⁻¹ s⁻¹
B4 (PRP43 F357A),Nc1ccn([C@@H]2O[C@H](COP(=O)(O)OP(=O)(O)OP(=O)(O)O)[C@@H](O)[C@H]2O)c(=O)n1,pH 8,,"KCl 100 mM, without Pfa1","polyA 0.2 mM, magnesium acetate 2.5 mM",73200 ± 7200 M⁻¹ s⁻¹
B5 (ASRGL1),NCCCC[C@H](NC(=O)C[C@H](N)C(=O)O)C(=O)O,pH 7.4,37 °C,NaCl 100 mM,,1000 ± 300 M⁻¹ s⁻¹
B6 (TcA),Nc1nc2nc[nH]c2c(=O)[nH]1,pH 8.3,37 °C,apparent,"PRPP 1 mM, MgCl2 12 mM",1.7e+06 ± 100000 M⁻¹ s⁻¹
B7 (CstB),CC(C)(COP(=O)(O)OP(=O)(O)OC[C@H]1O[C@@H](n2cnc3c(N)ncnc32)[C@H](O)[C@@H]1OP(=O)(O)O)[C@@H](O)C(=O)NCCC(=O)NCCSS,pH 6,25 °C,"NaBr 100 mM, air-saturated","Fe(II), O2",17500 ± 5100 M⁻¹ s⁻¹
B8 (putA),O=C(O)[C@@H]1CCCN1,pH 8,23 °C,,,740 ± 120 M⁻¹ s⁻¹
B9 (enzyme),CCCCC/C=C\C/C=C\C/C=C\C/C=C\CCCC(=O)SCCNC(=O)CCNC(=O)[C@H](O)C(C)(C)COP(=O)(O)OP(=O)(O)OC[C@H]1O[C@@H](n2cnc3c(N)ncnc32)[C@H](O)[C@@H]1OP(=O)(O)O,pH 7.5,28 °C,,,333 M⁻¹ s⁻¹
B10 (sacB S173A/S422A),OC[C@H]1O[C@@](CO)(O[C@H]2O[C@H](CO)[C@@H](O)[C@H](O)[C@H]2O)[C@@H](O)[C@@H]1O,pH 6.6,,,,350 M⁻¹ s⁻¹
B11 (TylM1),Cc1cn([C@H]2C[C@H](O)[C@@H](COP(=O)(O)OP(=O)(O)O[C@H]3O[C@H](C)[C@@H](O)[C@H](N)[C@H]3O)O2)c(=O)[nH]c1=O,,25 °C,,SAM,3800 ± 300 M⁻¹ s⁻¹
